# Published values collected from several papers.
# Each numbered part is a random draw from the data of one study; scales do not carry over between parts. Positions count from the first letter of the parent shown.

# Sample 1
# Target: ABI1, truncated, D143A, DHFR fusion (Arabidopsis thaliana)
# Method: DHFR PCA, deep sequencing
# Sample: yeast
# Notes: methotrexate growth selection, single substitutions
# Added: (+)-ABA 1.4 µM
# Baseline: wild-type fitted maximum
# Direction: higher = stronger binding
# Parent: PYL1, truncated, DHFR fusion (Arabidopsis thaliana); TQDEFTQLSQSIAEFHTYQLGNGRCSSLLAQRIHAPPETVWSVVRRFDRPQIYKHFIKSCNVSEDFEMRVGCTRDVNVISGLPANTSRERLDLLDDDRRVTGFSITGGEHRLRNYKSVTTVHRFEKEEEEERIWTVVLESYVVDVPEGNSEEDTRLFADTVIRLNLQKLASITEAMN; partner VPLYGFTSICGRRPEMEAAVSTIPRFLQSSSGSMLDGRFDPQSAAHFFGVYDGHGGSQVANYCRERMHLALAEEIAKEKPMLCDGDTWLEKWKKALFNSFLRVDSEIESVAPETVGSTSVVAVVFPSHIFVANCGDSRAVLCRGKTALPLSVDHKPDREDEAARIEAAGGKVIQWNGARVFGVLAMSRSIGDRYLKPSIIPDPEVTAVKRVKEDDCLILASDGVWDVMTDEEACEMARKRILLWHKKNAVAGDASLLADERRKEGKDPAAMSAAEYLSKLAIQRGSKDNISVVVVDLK
Variant,relative binding score [%]
D96M,1.9
A170M,13.8
R123E,70.8
T39P,9.9
C60E,6.21
V76S,-7.32
G71F,-10.3
T173D,-11.7
F47L,-0.919
F56I,-8.15
E128F,47.8
N149D,10.2
M68A,12.5
S171V,43.6
H110P,41.6
R24H,19.9
R163I,-25.9

# Sample 2
# Target: RNA binding protein fox-1 homolog 2, RRM domain, GST-SBP tag (RBFOX2, Homo sapiens, UniProt O43251-10, residues 100-194)
# Method: RNA Bind-n-Seq
# Form: RNA
# Sample: in vitro
# Tested at: 365 nM
# Notes: natural RNA segment, single round, ends assumed
# Baseline: no-protein control
# Direction: higher = stronger binding
# All sequences stand within: GGGAGUUCUACAGUCCGACGAUC … UGGAAUUCUCGGGUGCCAA
# Target sequence (chain): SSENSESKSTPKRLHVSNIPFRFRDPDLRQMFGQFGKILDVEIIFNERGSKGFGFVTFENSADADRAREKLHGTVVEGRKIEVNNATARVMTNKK
Sequence,RBNS enrichment (R)
AUUAAUCGUUUUAUUUGAGUAGGUAAACAAAUUUGCACACUUUUCCCCAGUGAAUUCCCAACACCUUGACUUCCUCAUUUCAGUGCUAAUAACCUGUUUUGUGUGCAGUU,0.374
UGUUCCUAGAAAAGUAAUAACAUAUGCUUAUCUUUAUUCUUUUUCCAGGUGAUUUUGUUUUCAAAUGCUCCUUGUGAAAACACCUAGUGUUGUAGAAAGGAAAGUGGCCA,0.543
AAUUUUACAUAGUGAAAUACACCAAGUCUUUUCCGGAGUUAUUACAAAGAGCCUCCUUUCCCCACCUUACUCACACUGAUUCCCACCUAACAAUCAGCAGAUGGGAGUGU,0.391
AAAUGUCCCAAACAUUUAAGCUAGAGUUAGUUCUUGAUGUUGUAUACCUAAGCCCAUAAUCGAGCUAGUAUCUUGGAUGGUAUACAACCAAGAACCAGCUAAACAAUUAG,0.389
GGUGGGGUUAUUGUUAGUAGGCGCAGCCUCAUUCCCACCACGAUCUGUUCCGCGUGGUUCCCGCCAAACCUCCCUCGGUCGCCGUGUUCUCCGCAAGCCUCCUGCAGCGC,0.315
CAUUUUACAUAAGAAUUUUAAGUAUUUGCAAUAAAUAUAUGUAUAUAGAUUGUAUGUAUUCCUAUAUUCUUAUUUUUCAUUUUAUUAUUAAGUAAAAGAUCAUUAAAAGU,0.777
UGCUUGGGCCUCCCUGGCACUGAACCUUAGGCUUUGUAUGACAGUGAAGCAGCACUGUGAGUGGUUCAAGCACACUGGAAUAUAAAACAGUCAUGGCCUGAGAUGCAGGU,0.86
CAGGGUUGUCUAGAGGAGUGGGGAGAUGACUUUGGGGGUUCUCCUGAUUCAGUGCCAAUAGCCACAGUGUGGCUCAAGAUACAGGUAGAGGGGCUACACUAGCCCACCCC,0.659
CCAUCGAGUAUUUCCCCCGGAACUGGAGAUUCGGGCGUCAUUUGGCUGCUACUUGCUUAGUGACUCCAGGCUGCAUCAUAUAUCAUAAUUUAUUUUAAAGAGAAAGUGAU,0.699
UAUAUUUCCAAGUUAGCAGUUAUGCAGCUCAAAAGCAGUAUUUGGCUUUAUAGUAAAUUUGUUUCUAAAUCUAAUAACUUUAAAAUAGAAACUUAAGUAAAUAUGGCUUA,0.361
AUUUAAUAAAACCUUCAAGAGAGAGUAAUGGACGGAGUGCAUUCUCCUUGAAAACUGUUCAGAGUUUACGUCUCGUUUGGGUUCAGUUUACAUAAGUGUGUGGGUGUCUU,0.658
AAAACAGUUUUUAAUUUUAGAAAUCUUAUACUUGAAAGAAACCUCAAUUAUCAGUGGCUUUAUGAAGUAAAGUUAAAAACAAACAUAGGAAAUGUGAAAAUAUUUGUGUU,2.19

# Sample 3
# Target: Histone acetyltransferase KAT6A, both winged helices, GST fusion (KAT6A, Homo sapiens, UniProt Q92794, residues 1-181)
# Method: protein binding microarray
# Form: double-stranded DNA, one strand shown
# Sample: in vitro
# Tested at: not given
# Notes: 8-mer, flanks averaged, mean of 2 arrays, mostly near background
# Baseline: not given
# Direction: higher = stronger binding
# Target sequence (chain): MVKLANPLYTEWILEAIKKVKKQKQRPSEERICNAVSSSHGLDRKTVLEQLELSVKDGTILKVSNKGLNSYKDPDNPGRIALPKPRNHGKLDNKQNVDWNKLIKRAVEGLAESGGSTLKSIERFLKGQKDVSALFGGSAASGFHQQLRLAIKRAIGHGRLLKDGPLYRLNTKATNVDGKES
Sequence,E-score
ACGCACGT,0.0879
CAACCGCG,0.302
CCAGCAGC,-0.197
ATCTCGCA,-0.0818
CTCATCTC,-0.0434
CAGGCCTC,0.0435
CAAAGGAC,-0.103
CAAACGAA,0.032
CTTGTCAA,0.153
CGCTCTAA,0.0963
AATGTCTA,-0.0774
CTCTCCGA,0.0393
CGACCCTC,-0.156
ATAGTGGG,-0.274
AGTAACTA,-0.0779
GAGTATGC,0.0997
TCGTAACA,-0.0067
CCGGCGTC,0.278
TAGGCGCA,0.0316
AGCTCGTC,-0.0755
ACTTGGCG,-0.0937
ACCAGCTA,-0.278
AAAGAGTT,-0.168

# Sample 4
# Target: CCNF, cyclin fold, Cln2 fusion (human)
# Method: yeast growth competition, sequencing
# Sample: yeast
# Notes: strong parent motif
# Baseline: not given
# Direction: higher = stronger binding
# Parent: CDKN1B docking peptide (human); PSACRNLFGPVDH
Variant,normalised enrichment score
SSACRNLFGPVDH [P1S],6.2
PGACRNLFGPVDH [S2G],6.69
PSACRNLAGPVDH [F8A],-0.192
PSACRNLFGYVDH [P10Y],8.61
PSACRNLFGPVYH [D12Y],7.38
PSACGNLFGPVDH [R5G],-0.349
PSALRNLFGPVDH [C4L],2.06
PSACRNLWGPVDH [F8W],1.43
WSACRNLFGPVDH [P1W],8.09
PSAFRNLFGPVDH [C4F],3.18
PSACRRLFGPVDH [N6R],7.99
PSACRNLHGPVDH [F8H],0.509
PSACRNLFGPVDV [H13V],6.88
PCACRNLFGPVDH [S2C],5.04
PSACRNLFAPVDH [G9A],3.97
KSACRNLFGPVDH [P1K],9
PSACVNLFGPVDH [R5V],0.864

# Sample 5
# Target: Phosphate system positive regulatory protein PHO4, full length, GST-tagged (PHO4, Saccharomyces cerevisiae, UniProt P07270, residues 1-312)
# Method: competition protein-binding microarray
# Form: double-stranded DNA, one strand shown
# Sample: in vitro
# Tested at: 2 µM
# Notes: whole 60-bp probe, lowest competitor level
# Added: Cbf1 competitor, 0.05 µM
# Direction: higher = stronger binding
# All sequences stand within: … GTCTTGATTCGCTTGACGCTGCTG
# Target sequence (chain): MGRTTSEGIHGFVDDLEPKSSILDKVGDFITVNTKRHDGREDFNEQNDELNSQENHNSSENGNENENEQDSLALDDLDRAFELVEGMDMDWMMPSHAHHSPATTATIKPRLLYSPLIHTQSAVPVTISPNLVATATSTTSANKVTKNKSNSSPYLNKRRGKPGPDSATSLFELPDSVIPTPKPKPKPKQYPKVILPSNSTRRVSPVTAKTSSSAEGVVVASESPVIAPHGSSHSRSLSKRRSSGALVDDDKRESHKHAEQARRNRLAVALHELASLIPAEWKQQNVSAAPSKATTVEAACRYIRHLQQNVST
Sequence,fluorescence intensity [a.u.]
AAATTACTAAGTTTTCACGTGGTCTACCCCGTATGA,13700
TTGTTTTCTTCTTCACACGTGAGATTTTCCGCCGGC,12000
TCAAGTGGGGTAGGACACGGGACTTCAGGTCCTCCT,6800
AAATTACTAAGTTGTCACGAAACTTACCCCGTATGA,3330
AGCGCCCATAAAAAGCACGATATTCTTGTACACTAG,6300
TGTCGCTCTCCCAGCCACGCTCGAAGGACTTGCTGA,4720
CATACCCAACCTTGTGGGGTGGGTGAAGATATTTGT,7170
TAAAAACGATTTCACCACGTGACTCGTATTAGAAAT,15300
AAAGCGGTAATTTGACAGGTGGGTGCAGATATCTAT,6160
CAGATTAAGCCCCGCCACGTGGTGGCCAAGCCAGCT,15600
ACCAGACGGAGTTTGCACGGGAGTGTTGTTGGGCGC,6180
CTAATACCCGGAAGTCGCGTGATGGTTTTTTTTTTC,6880
CCTAATGCTGAAAAGCCCGTGCTTTTCCATTCTGCG,9790
CGATGTATTTACCATCACCTGGTGATACAGCGACGG,4550
TGCGCAACAACTTGCGCCGTGGGTGTATGTCTAGAA,5450
TACCCCATAATTTTGCACGTGACGGGTTTGTATTAC,16100
TTTTTCTTCTTAAAGCACGTTAACCAGTAATCAAGG,7970
CCATTTCTTCTTCGTCACACGTTAAGCTTGCCAGGA,6860
CTAACGAAGGTTTGCCACGTGTTTTACAAGCCAAGT,16400

# Other studies, line by line
Substance,target,test,test system,setting,scale,quantity,value
"PhoQ, residues 284 288 289 292 302 303 NLALSC","PhoP, residues 12 14 15 18 19 LQHIR (Escherichia coli, UniProt P23836)","Sort-seq, measured: YFP reporter",E. coli,"PhoQ-PhoP variant library, added: 10 µM Mg2+","baseline: high Mg2+ state, higher = stronger signaling",fold induction,2.77

# Excerpt of the above (sample 5):
Sequence,fluorescence intensity [a.u.]
CCTAATGCTGAAAAGCCCGTGCTTTTCCATTCTGCG,9790
CGATGTATTTACCATCACCTGGTGATACAGCGACGG,4550
TGCGCAACAACTTGCGCCGTGGGTGTATGTCTAGAA,5450
TACCCCATAATTTTGCACGTGACGGGTTTGTATTAC,16100
TTTTTCTTCTTAAAGCACGTTAACCAGTAATCAAGG,7970
CCATTTCTTCTTCGTCACACGTTAAGCTTGCCAGGA,6860
CTAACGAAGGTTTGCCACGTGTTTTACAAGCCAAGT,16400
